Results from different studies.
A part holds a random share of what one study measured. Changes are numbered by the printed parent chain.

Block 1
Target: CCNE1, cyclin fold, Cln2 fusion (human)
Technique: yeast growth competition, sequencing
Medium: yeast
Setting: weak parent motif
Relative to: not given
Direction: higher = stronger binding
Starting sequence: BORA docking peptide (human); SSLRRKLFLDGNG
| Substitution | normalised enrichment score |
| --- | --- |
| L9F | 0.93 |
| G11A | 0.767 |
| D10A | 0.114 |
| S1A | 0.708 |

Block 2
Target: BATF2, bZIP domain (human)
Technique: DHFR protein complementation
Medium: yeast
Setting: single substitutions, most at no-binding floor
Relative to: wild-type JUN-FOS pair
Direction: higher = stronger binding
Starting sequence: JUN, bZIP domain (human); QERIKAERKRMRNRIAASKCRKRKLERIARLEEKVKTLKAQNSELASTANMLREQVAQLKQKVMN; partner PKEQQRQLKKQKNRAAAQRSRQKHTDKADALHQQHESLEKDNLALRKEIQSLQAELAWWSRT
| Substitution | binding fitness [natural log] |
| --- | --- |
| T37H | -0.12 |
| E32G | -0.852 |
| L38H | -1.32 |
| E32A | -0.0448 |
| K39Y | -0.75 |
| L45E | -1.43 |
| S47T | -0.29 |

Block 3
Target: Histone acetyltransferase KAT6A, winged helix 2, GST fusion (KAT6A, Homo sapiens, UniProt Q92794, residues 85-181)
Technique: protein binding microarray
Molecule type: double-stranded DNA, one strand shown
Medium: in vitro
Concentration: not given
Setting: 8-mer, flanks averaged, mean of 2 arrays, mostly near background
Relative to: not given
Direction: higher = stronger binding
Construct (chain): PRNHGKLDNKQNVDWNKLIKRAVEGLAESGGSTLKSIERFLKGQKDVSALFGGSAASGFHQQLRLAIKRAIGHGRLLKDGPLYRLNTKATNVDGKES
| Sequence | E-score |
| --- | --- |
| CAGGGTAA | -0.0615 |
| GGAAGCAA | 0.0638 |
| AATAGGAT | -0.0473 |
| AAGTGACA | 0.0814 |
| ATCGGCCC | 0.0532 |

Other studies, line by line
| Molecule | target | test | system | setting | how to read | measurement | value |
| --- | --- | --- | --- | --- | --- | --- | --- |
| PhoQ, residues 284 288 289 292 302 303 GASLAW | PhoP, residues 12 14 15 18 19 DLLYY (Escherichia coli, UniProt P23836) | Sort-seq, refers to: YFP reporter | E. coli | PhoQ-PhoP variant library, together with: 10 µM Mg2+ | relative to: high Mg2+ state, higher = stronger signaling | fold induction | 1.57 |

Excerpt of the above (block 2):
| Substitution | binding fitness [natural log] |
| --- | --- |
| T37H | -0.12 |
| K39Y | -0.75 |
